Measured values from different studies.
Each line is one published result; not all experiments were run side by side. Numbers after ± are the reported error.

Compound = CCN1CCN(Cc2ccc(Nc3ncc(F)c(-c4cc(F)c5nc(C)n(C(C)C)c5c4)n3)nc2)CC1; test system = fasted healthy human subjects, plasma; setting = oral, 150 mg, 3 × 50 mg tablet; AUC(0-inf) = 3120 ng·h/mL
Compound = CN1C(=O)[C@@H](NC(=O)c2nnc(Cc3ccccc3)[nH]2)COc2cccnc21; test system = healthy human, fasted, plasma; setting = oral, 30 mg single dose, geometric mean; AUC(0-inf) = 5570 ng·h/mL
Compound = C[C@H]1CN(C(=O)CC#N)[C@]12CCN(c1ncnc3[nH]ccc13)C2; test system = healthy adult humans, plasma; setting = oral, 12 mg single, geometric mean; AUC(0-inf) = 408 ng·h/mL
Compound = C[C@@H](Oc1ccc(S(C)(=O)=O)cc1C(=O)N1C[C@@H]2C[C@]2(c2cc(C(F)(F)F)on2)C1)C(F)(F)F; test system = healthy young humans, plasma; setting = oral, 50 mg single dose; AUC(0-inf) = 18.3 µM·h
Compound = Cn1cncc1[C@@](N)(c1ccc(Cl)cc1)c1ccc2c(c1)c(-c1cccc(Cl)c1)cc(=O)n2C; test system = human, plasma; setting = oral, dose not given, together with: omeprazole; AUC(0-inf) = 372 ng·h/mL
Compound = NC[C@@]1(CC(=O)O)[C@@H]2CC[C@H]3C[C@@H]2[C@@H]1C3; test system = human, normal renal function, plasma; setting = dose not given, geometric least squares mean; AUC(0-inf) = 1790 ng·h/mL
Compound = COc1ccc([C@@H](O)c2cc(-c3ncnc4cc(N5CCOCC5)ccc34)c(F)cc2Cl)nn1; test system = healthy human volunteers, plasma; setting = oral, 100 mg single dose, tablet, fasted, geometric mean; AUC(0-inf) = 1100 ng·h/mL
Compound = Cn1cc(-c2ccc(S(=O)(=O)[C@@H]3C[C@@H](C(=O)NC4(C#N)CC4)N(C(=O)C4(C(F)(F)F)CC4)C3)c(C(F)(F)F)c2)cn1; assay = noncompartmental analysis; test system = human, plasma; setting = oral, 50 mg, day 1, with food, geometric mean; AUC(0-inf) = 6150 ng·h/mL
Compound = Cn1cncc1[C@@](N)(c1ccc(Cl)cc1)c1ccc2c(c1)c(-c1cccc(Cl)c1)cc(=O)n2C; test system = human, acute leukaemia, plasma; setting = 200 mg/m^2, estimated from steady-state AUC(0-12h); AUC(0-inf) = 4220 ng·h/mL
Compound = Cn1nnc2c(C(N)=O)ncn2c1=O; test system = human patients, plasma; setting = oral, 40 mg/m2, day 5, dose level DL5, median, together with: talazoparib 600 µg/m2; AUC(0-inf) = 6380 ng·h/mL
Compound = N[C@@H]1c2cccnc2[C@H](OC(=O)N2CCC(n3c(=O)[nH]c4ncccc43)CC2)CC[C@H]1c1cccc(F)c1F; test system = human, plasma; setting = oral, 75 mg single dose, alone, geometric mean, fluconazole DDI study; AUC(0-inf) = 5150 ng·h/mL
Compound = N#Cc1cccc(-c2ccc3ncc(-c4cc(F)cc(F)c4)c(N4CCC(N)CC4)c3c2)c1O; test system = male human, plasma; setting = oral, 20 mg single, geometric mean; AUC(0-inf) = 2390 ng·h/mL
Compound = N[C@](CO)(CCc1ccc(Sc2cccc(OCc3ccccc3)c2)cc1Cl)COP(=O)(O)O; test system = human, blood; setting = 3 mg, mean, together with: itraconazole 200 mg once daily; AUC(0-inf) = 181 ng·h/mL
Compound = Cc1cc(C)c(CNC(=O)c2cc(Cl)c3c(c2C)O[C@@](C)([C@H]2CC[C@H](N(C)C)CC2)O3)c(=O)[nH]1; test system = healthy male human, plasma; setting = oral, 25 mg, alone, before fluconazole; AUC(0-inf) = 686 ng·h/mL
Compound = C=CC(=O)NC1CCN(c2ncc3ncnc(Nc4ccc(Oc5ccc6c(c5)ncn6C)c(C)c4)c3n2)CC1; test system = human, male; setting = oral, 30 mg, fasted, spray-dried dispersion, geometric mean; AUC(0-inf) = 5.98 µM·h
Compound = CN(CC#N)C(=O)C[C@H](Nc1nc2ccccc2[nH]1)c1cccc(C(F)(F)F)c1; test system = human; setting = intravenous infusion, 4 mg/kg, 1 mg/mL formulation; AUC(0-inf) = 20000 ± 7790 ng·h/mL
Compound = Cc1ccc(C)c(OCCCC(C)(C)C(=O)O)c1; test system = human, plasma; setting = oral, 600 mg single, after lopinavir/ritonavir, geometric mean, together with: lopinavir/ritonavir 400/100 mg twice daily; AUC(0-inf) = 62000 ng·h/mL
Compound = N[C@]1(C(=O)O)[C@H]2[C@@H](C[C@@H]1F)[C@@H]2C(=O)O; test system = human, both sexes, plasma; setting = oral, 10 mg, fed, single dose; AUC(0-inf) = 383 ng·h/mL
Compound = CN(C)C(=O)c1cc2cnc(Nc3ccc(N4CCNCC4)cn3)nc2n1C1CCCC1; test system = human, mild renal impairment, plasma; setting = oral, 400 mg, geometric mean; AUC(0-inf) = 6650 ng·h/mL
Compound = CC1(COc2ccc3c(c2)ncn3-c2ccc3cccc(N4CCC(N)CC4)c3n2)COC1; test system = human patients, recurrent/progressive HGG or DIPG, serum; setting = oral, 130 mg/m^2, day 1, median; AUC(0-inf) = 5.78 µM·h
Compound = O=C(c1nc2n(n1)[C@H](c1ccccc1)C[C@@H]2F)C1CC1; assay = geometric LS mean; test system = human, fasted, plasma; setting = oral, 75 mg single dose; AUC(0-inf) = 13200 ng·h/mL
Compound = C[C@@H](N)c1cc(Cl)ccc1Cn1c(=S)[nH]c(=O)c2[nH]ccc21; test system = human, both sexes, matched healthy controls, plasma; setting = oral, 2.5 mg single dose, geometric mean; AUC(0-inf) = 0.291 µM·h
Compound = Cn1c(=O)oc2ccc(-c3ccc(C[C@@H](C#N)NC(=O)[C@@H]4CNCCCO4)cc3)cc21; test system = human, mild renal impairment, plasma; setting = oral, 25 mg single dose, mean; AUC(0-inf) = 3610 ng·h/mL
Compound = Cc1ccc(C(=O)N(CCCN)C(c2nc3snc(C)c3c(=O)n2Cc2ccccc2)C(C)C)cc1 (stereo not shown); test system = human patients, plasma; setting = intravenous, 16 mg/day, day 3 after induction, geometric mean; AUC(0-inf) = 1290 ng·h/mL
Compound = CC[C@H](Nc1ncnc2[nH]cnc12)c1oc2ccccc2c(=O)c1-c1cccc(F)c1; test system = human patients, plasma; setting = oral, 600 mg twice daily, together with: romidepsin 12 mg/m2; AUC(0-inf) = 13400 ± 1180 ng·h/mL
Compound = O=C(O)CCC(=O)O.[2H]C([2H])([2H])Oc1cc(C)c2[nH]ccc2c1CN1CC[C@@H](C2CC2)C[C@H]1c1ccc(C(=O)O)cc1; assay = LC-MS/MS, geometric mean; test system = human, plasma; setting = 400 mg, single dose, fasting; AUC(0-inf) = 151000 ng·h/mL
Compound = C=CC(=O)N(C)CCOc1c(N)ncnc1-c1cc(F)cc(NC(=O)c2ccc(C3CC3)cc2F)c1C; test system = human, fed, whole blood; setting = oral, 60 mg single dose, food effect study, mean; AUC(0-inf) = 214 ng·h/mL
Compound = Nc1ccn([C@@H]2O[C@H](CO)[C@@H](O)C2(F)F)c(=O)n1; assay = HPLC-UV; test system = human, plasma; setting = intravenous, 800 mg/m^2, median, after paricalcitol; AUC(0-inf) = 16600 ng·h/mL
Compound = [H]/N=C(/N)c1ccc(NCc2nc3cc(C(=O)N(CCC(=O)O)c4ccccn4)ccc3n2C)cc1; test system = healthy human subjects, plasma; setting = oral, 150 mg dabigatran etexilate, geometric mean; AUC(0-inf) = 1010 ng·h/mL
Compound = C#C[C@]1(CO)O[C@@H](n2cnc3c(N)nc(F)nc32)C[C@@H]1O; test system = human, plasma; setting = oral, 30 mg, single dose, geometric mean; AUC(0-inf) = 3.84 µM·h
Compound = CC(=O)c1cc(C(=O)N[C@@H](C)Cn2ccc(-c3ccc(C#N)c(Cl)c3)n2)[nH]n1; test system = human, fasted, plasma; setting = oral solution, 300 mg 14C-darolutamide, geometric mean; AUC(0-inf) = 93700 ng⋅h/mL
Compound = Cc1cc(Nc2cc3ncccc3c(N[C@@H]3C[C@H]4CC[C@@H](C3)N4CCC#N)n2)n[nH]1; test system = human, plasma; setting = 30 mg single dose, mean; AUC(0-inf) = 5.2 ng·h/mL
Compound = CC1(C)CC[C@]2(NC(=O)C(C)(F)F)CC[C@]3(C)[C@H](C(=O)C=C4[C@@]5(C)C=C(C#N)C(=O)C(C)(C)[C@@H]5CC[C@]43C)[C@@H]2C1; test system = human, plasma; setting = oral, 150 mg, single dose alone, geometric mean; AUC(0-inf) = 1730 ng·h/mL
Compound = CC(C)n1c(Nc2cccnc2)nc2cnc(Nc3ccc(N4CCN(C)CC4)cc3)nc21; assay = LC-MS/MS; test system = human, male, plasma; setting = oral, 100 mg, day 11, together with: itraconazole 200 mg; AUC(0-inf) = 1150 ng·h/mL
Compound = N#CN1C[C@H](n2nc(-c3ccc(Oc4ccc(Cl)cn4)cc3)c(C(N)=O)c2N)CCC12CC2; test system = human, fed, plasma; setting = oral, 600 mg; AUC(0-inf) = 20400 ± 7160 ng·h/mL
Compound = CN(C(=O)C(C)(C)c1cc(C(F)(F)F)cc(C(F)(F)F)c1)c1cnc(N2C[C@H]3COCCN3C[C@H]2CO)cc1-c1ccc(F)cc1[14CH3]; assay = item: total radioactivity; test system = human, plasma; setting = oral, 120 mg; AUC(0-inf) = 21700 ng equiv·h/mL
Compound = CC(C)(C)[C@@H]1NC(=O)O[C@@H]2CCC[C@H]2OC/C=C/C(F)(F)c2nc3ccccc3nc2O[C@@H]2C[C@@H](C(=O)N[C@]3(C(=O)NS(=O)(=O)C4(C)CC4)C[C@H]3C(F)F)N(C2)C1=O; test system = healthy human subjects, plasma; setting = oral, dose not given, together with: carbamazepine twice daily; AUC(0-inf) = 1290 ng·h/mL
